Assay results of several laboratories.
Parts stem from different laboratories: compare values within a part only. Changes are numbered by the printed parent chain.

Set 1 — method: protein-binding microarray; form: double-stranded DNA, one strand shown; sample: in vitro; concentration: 2540 nM top; notes: 60-bp whole probe; together with: salmon DNA 0.4 mg/ml; relative to: random background probes; direction: higher = stronger binding; shared flanks, not repeated: GCCTAGCAC … GTCTTGATTCGCTTGACGCTGCTG
Target: Interferon regulatory factor 3, full length, phosphomimetic (IRF3, Homo sapiens, UniProt Q14653, residues 1-427, S386D/S396D/S398D/S402D/T404D/S405D)
Construct (chain): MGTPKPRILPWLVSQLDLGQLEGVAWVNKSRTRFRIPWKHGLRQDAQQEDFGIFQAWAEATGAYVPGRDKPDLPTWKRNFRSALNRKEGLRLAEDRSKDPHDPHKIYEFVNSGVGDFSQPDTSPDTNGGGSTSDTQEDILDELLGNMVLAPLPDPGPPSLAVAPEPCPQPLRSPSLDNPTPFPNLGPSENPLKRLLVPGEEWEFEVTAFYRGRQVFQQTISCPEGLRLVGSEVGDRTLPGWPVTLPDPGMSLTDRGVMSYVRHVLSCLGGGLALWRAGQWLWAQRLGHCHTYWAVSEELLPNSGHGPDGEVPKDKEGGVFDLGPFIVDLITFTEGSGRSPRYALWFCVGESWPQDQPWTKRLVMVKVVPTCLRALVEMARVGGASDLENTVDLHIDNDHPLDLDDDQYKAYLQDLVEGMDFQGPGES
Sequence	fitted relative affinity [z-score]
GACGATATCCTACTGCTGACGTGCTAG	0.767
GACGGACTGCTTTTCCTGGCGTGCTAG	-0.186
TTCGGTTCCGGTTTCGGTTAGTGCTAG	7.46
TCTCCTCCCCCTCTGCCACCGTGCTAG	0.663
TCAGTGCTCATGCTTCTTACTGTGCTA	-0.65
GACGGGTTCGGTTTCGGGACGTGCTAG	4.77
TTAGGTTTCCTTTTGCTTTAGTGCTAG	9.24
TTAGGTTTCCTTTTCCGTTAGTGCTAG	10.8

Set 2 — method: RNAcompete; form: RNA; sample: in vitro; concentration: 20 nM; notes: 7-mer, probes averaged, single round; relative to: mean of 7-mers; direction: higher = stronger binding
Target: PABPC1L2, full length, GST fusion (mouse, UniProt A0ABA7IW68)
Target sequence (chain): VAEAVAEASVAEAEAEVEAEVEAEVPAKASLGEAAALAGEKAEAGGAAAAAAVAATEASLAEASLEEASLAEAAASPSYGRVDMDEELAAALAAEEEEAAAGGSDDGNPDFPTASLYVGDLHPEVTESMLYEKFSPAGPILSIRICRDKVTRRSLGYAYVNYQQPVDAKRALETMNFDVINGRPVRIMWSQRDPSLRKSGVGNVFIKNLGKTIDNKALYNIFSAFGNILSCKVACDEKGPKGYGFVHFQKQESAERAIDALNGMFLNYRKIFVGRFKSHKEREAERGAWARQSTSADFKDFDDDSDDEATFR
Sequence	7-mer Z-score
AUGGUUG	-0.104
UAUUAAA	0.599
CUCGUAG	-0.251
UAGUGAG	-0.26
ACCCUAA	-0.0192
AAAACGC	3.37
ACCGCAG	-0.0953
AAACCCC	-0.0881

Set 3 — method: universal PBM; form: double-stranded DNA, one strand shown; sample: in vitro; concentration: not given; direction: higher = stronger binding
Target: Sal-like protein 4, full length isoform B (SALL4, Homo sapiens, UniProt Q9UJQ4-2, residues 1-616)
Notes: 8-mer, flanks averaged, mean of replicates
Sequence	E-score
ACTGGTGG	-0.207
TGGTAACA	0.0749
CGGACCCC	-0.444
TACCCATA	0.214
AGACGAGA	-0.053
GGTTTCCA	-0.0492
GATGTGCA	0.00908
CAAGAACG	-0.0331

Mixed results
Starting sequence: PafA, mature enzyme, eGFP fusion (Elizabethkingia meningoseptica, UniProt Q9KJX5); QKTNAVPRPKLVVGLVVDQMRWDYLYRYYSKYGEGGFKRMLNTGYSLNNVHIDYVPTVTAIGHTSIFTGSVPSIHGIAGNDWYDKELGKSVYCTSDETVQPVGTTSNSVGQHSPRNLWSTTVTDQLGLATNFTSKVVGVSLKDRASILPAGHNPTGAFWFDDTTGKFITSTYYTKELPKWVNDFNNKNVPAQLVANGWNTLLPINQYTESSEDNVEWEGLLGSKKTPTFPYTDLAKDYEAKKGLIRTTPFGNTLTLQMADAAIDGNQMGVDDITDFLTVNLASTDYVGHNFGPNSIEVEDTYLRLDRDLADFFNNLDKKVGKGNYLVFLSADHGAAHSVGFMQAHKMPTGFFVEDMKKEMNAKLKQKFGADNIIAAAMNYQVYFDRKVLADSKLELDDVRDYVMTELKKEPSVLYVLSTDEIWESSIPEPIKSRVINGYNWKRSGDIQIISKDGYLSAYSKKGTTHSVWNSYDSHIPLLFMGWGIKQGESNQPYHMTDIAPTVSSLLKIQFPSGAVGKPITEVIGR
Change	target	assay	test system	setting	scale	quantity	value
T465V	inorganic phosphate, free oxyanion	microfluidic competitive inhibition	in vitro, cell-free expressed	not given, derived from inhibition constants, unchanged parent 615000 nM	lower = stronger binding	phosphate dissociation constant	401 µM
